Published values of several laboratories.
A part holds a random share of what one study measured. Substitutions count along the parent as printed.
UniProt Q9Y2X8, sequence (whole entry, looked up): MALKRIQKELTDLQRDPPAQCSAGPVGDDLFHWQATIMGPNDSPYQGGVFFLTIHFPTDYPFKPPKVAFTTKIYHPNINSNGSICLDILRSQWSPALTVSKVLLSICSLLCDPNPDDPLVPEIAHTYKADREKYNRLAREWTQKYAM
UniProt P62837, sequence (whole entry, looked up): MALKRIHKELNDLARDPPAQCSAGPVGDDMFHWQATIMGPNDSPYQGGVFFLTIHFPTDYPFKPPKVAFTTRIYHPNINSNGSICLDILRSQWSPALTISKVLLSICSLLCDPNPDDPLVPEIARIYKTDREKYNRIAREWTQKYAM
UniProt Q9NPD8, sequence (whole entry, looked up): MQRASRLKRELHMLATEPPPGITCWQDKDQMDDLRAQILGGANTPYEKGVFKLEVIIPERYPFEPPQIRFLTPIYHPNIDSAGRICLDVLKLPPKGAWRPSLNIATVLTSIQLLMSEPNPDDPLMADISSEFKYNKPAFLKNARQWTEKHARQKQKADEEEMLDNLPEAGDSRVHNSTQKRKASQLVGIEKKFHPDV
UniProt P63146, sequence (whole entry, looked up): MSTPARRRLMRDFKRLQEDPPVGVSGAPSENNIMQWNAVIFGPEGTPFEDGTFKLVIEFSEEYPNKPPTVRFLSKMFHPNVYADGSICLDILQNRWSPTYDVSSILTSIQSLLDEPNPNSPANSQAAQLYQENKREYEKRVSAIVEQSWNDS

Sample 1 — technique: RNAcompete; form: RNA; medium: in vitro; concentration: 20 nM; setting: 7-mer, probes averaged, single round; relative to: mean of 7-mers; direction: higher = stronger binding
Target: PABPC1L2, full length, GST fusion (mouse, UniProt A0ABA7IW68)
Oligonucleotide | 7-mer Z-score
AAGCGCG | 0.137
GUGGCAC | 0.0895
UCGUACA | -0.24
UCCGAUU | -0.311
AGGGGAA | 0.314
UCGAGUU | -0.315
AGACGCA | -0.159
UAAAACU | 1.62
GGCGUCU | -0.157
UCCCUUU | -0.253
CGACUCC | -0.231
CCGACCA | -0.17
CGUUCGG | -0.344
GGUGUUA | -0.05
CAUGCGC | -0.237
AACACAU | 0.466
CGCGAUU | -0.2
CGGAAUC | -0.132
UUUUGCC | -0.378
GCUCGGU | -0.219
GGCUAUC | 0.000733
AUCGUUA | -0.255
CCCCCUU | -0.525
CUUAGGC | -0.306

Sample 2 — technique: protein-binding microarray; form: double-stranded DNA, one strand shown; medium: in vitro; concentration: not given; direction: higher = stronger binding
Target: Protein C-ets-1 (ETS1, Homo sapiens, UniProt P14921, residues 1-441, Y397A, full length assumed)
Setting: k-mer, scored over probes, only values ≥0.25
Target sequence (chain): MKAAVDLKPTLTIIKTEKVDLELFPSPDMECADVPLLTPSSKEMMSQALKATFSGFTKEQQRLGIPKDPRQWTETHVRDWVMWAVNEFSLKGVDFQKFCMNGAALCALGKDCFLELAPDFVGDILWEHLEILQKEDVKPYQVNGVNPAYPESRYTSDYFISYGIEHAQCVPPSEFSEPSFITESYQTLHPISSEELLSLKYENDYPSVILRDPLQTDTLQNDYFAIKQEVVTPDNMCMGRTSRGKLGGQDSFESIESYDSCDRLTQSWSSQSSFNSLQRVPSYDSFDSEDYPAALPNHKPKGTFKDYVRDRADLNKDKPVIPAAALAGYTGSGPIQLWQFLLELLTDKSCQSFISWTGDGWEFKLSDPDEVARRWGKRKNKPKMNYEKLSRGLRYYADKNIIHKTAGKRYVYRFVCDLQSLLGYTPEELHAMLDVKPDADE
Oligonucleotide | E-score
GTGTCGGA | 0.291
CAAAACGA | 0.307
ACCCGGAA | 0.274
CAAGACAA | 0.256
GGCAATCA | 0.279
CGGAAACG | 0.389
CGTGTCAC | 0.282
CGAATGAC | 0.263
CATATACA | 0.307
GTACGTAC | 0.274
CGAACAAA | 0.29
CACATTAC | 0.304
ATGTTTGC | 0.263
ACATATGT | 0.342
AATGTCGA | 0.253
ATTTGTAA | 0.284

Sample 3 — Molecule: B1 (RNF2 RING domain); technique: yeast two-hybrid; medium: yeast; setting: mostly zero background; relative to: not given; direction: higher = stronger interaction
B1: RNF2 RING domain (UniProt Q99496); chain SPRSLHSELMCPICLDMLKNTMTTKECLHRFCADCIITALRSGNKECPTCRKKLVSKRSLR
target | lacZ reporter activity
UBE2D4 UBC core domain (UniProt Q9Y2X8) | 0
UBE2D2 UBC core domain (UniProt P62837) | 0
UBE2I UBC core domain (UniProt P63279) | 0
UBE2T UBC core domain (UniProt Q9NPD8) | 0
UBE2B UBC core domain (UniProt P63146) | 0

Sample 4 — technique: DHFR PCA, deep sequencing; medium: yeast; added: (+)-ABA 17 µM; relative to: wild-type fitted maximum; direction: higher = stronger binding
Target: ABI1, truncated, D143A, DHFR fusion (Arabidopsis thaliana)
Setting: methotrexate growth selection, single substitutions
Starting sequence: PYL1, truncated, DHFR fusion (Arabidopsis thaliana); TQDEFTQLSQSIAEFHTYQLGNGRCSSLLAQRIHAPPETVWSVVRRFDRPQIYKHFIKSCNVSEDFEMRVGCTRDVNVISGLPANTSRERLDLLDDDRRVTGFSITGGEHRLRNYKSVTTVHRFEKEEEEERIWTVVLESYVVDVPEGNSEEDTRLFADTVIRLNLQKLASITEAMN; partner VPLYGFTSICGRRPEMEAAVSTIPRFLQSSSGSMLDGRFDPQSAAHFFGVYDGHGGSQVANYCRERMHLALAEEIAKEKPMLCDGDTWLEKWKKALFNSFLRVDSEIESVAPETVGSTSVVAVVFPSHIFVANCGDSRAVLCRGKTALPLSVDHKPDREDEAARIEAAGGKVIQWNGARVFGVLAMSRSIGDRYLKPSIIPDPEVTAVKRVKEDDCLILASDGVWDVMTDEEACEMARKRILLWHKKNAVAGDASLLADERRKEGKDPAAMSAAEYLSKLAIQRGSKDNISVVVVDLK
Substitution | relative binding score
L94A | 2.35%
L94W | 71.3%
E109P | 14.2%
E128N | 88.6%
T173R | 3.1%
H34I | 72.4%
Q19V | 81.3%
G148W | 19.8%
K54T | -12.8%
V100R | 31.8%
G108K | -5.59%
T154H | -18.1%
R163N | 58.6%
R123N | 84.9%
T39W | 60.9%
M176Y | 82.3%
G108M | -0.373%
L8F | 87.8%
W41Q | -21.9%
E129M | 78%
H16P | 16%
L166Y | -11.8%
G81Q | -0.0148%
K54Y | -2.48%

Sample 5 — technique: protein-binding microarray; form: double-stranded DNA, one strand shown; medium: in vitro; concentration: 940 nM top; setting: 60-bp whole probe; added: salmon DNA 0.4 mg/ml; relative to: random background probes; direction: higher = stronger binding; constant ends, left off below: GCCTAGCAC … GTCTTGATTCGCTTGACGCTGCTG
Target: Interferon regulatory factor 5, full length, phosphomimetic (IRF5, Homo sapiens, UniProt Q13568-2, residues 1-514, S451D/S453D/S456D/S462D)
Oligonucleotide | fitted relative affinity [z-score]
GACGGTCTCGTTCTCGGGACGTGCTAG | 2.29
GACGATCTAAGTTTCGAGACGTGCTAG | 2.72
TTAGATTTCGGGCTTCGATTAGTGCTA | 0.676
TTAGGACTGGGTATTGGTTAGTGCTAG | 0.11
TTAGCTTTCAGTTCCGATTAGTGCTAG | 2.55
GACGATATCCTTTTCCTGACGTGCTAG | 0.369
TTAGATTTCAGCCTCGATTAGTGCTAG | 0.038
GACGAACTGGGGTTTCGGGACGTGCTA | 1.98
TCAGCATACCATATCAGACTGTGCTAG | -0.0819
GACGGACTGCTTCTCCTAACGTGCTAG | -0.229
TTAGATATCGCGACTGGATTAGTGCTA | -0.273
ATGGGTATGGCCTATTTATATGTGCTA | -0.122
GACGGACTGGACTTTCGAGACGTGCTA | 0.0527
TCATGTTTGATAATTTTACTGTGCTAG | 0.167
TTCTCTTTCACTGCTGCCCTGTGCTAG | 2.62
TCAGCTTGGTGTCTCTGACTGTGCTAG | -0.293

Sample 6 — technique: RNA Bind-n-Seq; form: RNA; medium: in vitro; concentration: 100 nM; relative to: input RNA pool; direction: higher = stronger binding
Target: RING finger protein unkempt homolog, zinc fingers 1-6, SBP tag (UNK, Homo sapiens, UniProt Q9C0B0, residues 30-357)
UniProt Q9C0B0, sequence (30-357, looked up): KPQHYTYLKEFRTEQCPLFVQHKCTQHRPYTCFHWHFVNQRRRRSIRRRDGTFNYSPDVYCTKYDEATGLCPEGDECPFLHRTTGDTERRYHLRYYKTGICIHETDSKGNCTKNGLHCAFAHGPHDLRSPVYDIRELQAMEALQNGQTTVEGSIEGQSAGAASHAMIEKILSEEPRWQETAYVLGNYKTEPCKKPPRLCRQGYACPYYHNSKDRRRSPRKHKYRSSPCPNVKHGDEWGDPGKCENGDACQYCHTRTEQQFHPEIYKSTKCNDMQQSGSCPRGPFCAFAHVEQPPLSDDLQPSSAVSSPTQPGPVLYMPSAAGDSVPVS
Setting: RNA with constant flanks, vertebrate orthologous sites, ends assumed
Constant ends, left off below: GGGAGUUCUACAGUCCGACGAUC … CAACAGAGGAUUGAGCAUCA
Oligonucleotide | bound/input enrichment [ratio]
UCUAAAGUUAUAGGAAAGGAGCCAAGUAGUAGCACCUUUUUAUGUAAACGUGAAAACAACUUGAUCCAGCCUCUUUCCUUACACUCAAUUUAAAAGUAGAAAAUACCUCAGCAGUUGUUU | 0.338
CCCUUUCUCCCCAGCUGAGGGAGUUCAGGGAGCCCAGGACGACCCUCAACUGUUCCAAUCCAGUAUUUUUUUCUUUUUUUAAAAUUACUGUAUUUAUUAUGACGAUGGUGACUCCCCAGU | 0.365
AGCAGGCCAGGGAUUGAGGCCCACCUUCCCACAUGUACCAAGUAGGUAUGGAAACAACAGGACAGGACAGCCAAGACCUUGAAGGACUUUAACUUAUUUUUAUGAGGAAUGUCGACUCCU | 0.573
GGUUGAUGUUCUGAAGAACCACUUGGUAAAAGAAGGUCGAGUAGAUGAAGAAAUUGCACUUAGAAUUAUCAAUGAGGGUGCUGCCAUCCUUCGGAGAGAGAAAACCAUGAUAGAAGUAGA | 0.467
GUGUCCCUCCCGCGGUGACGUCCUUUCUUACUGUCCCCGGCCAGGGCUGAGGGCCUGCAUUAGAAACAUUUUUUAAAUUGUCGUACAGGAAGAGAUGUGUCUAGCACAGCGUCUCAAAGC | 0.961
GCUUUGGACCUUGGAGCCGAACCAGGGAGUGAGCAAAAAUAAAGCAGACUUGUAAAAUUAUAGCCACAUGCAGCUGCAUAACAAUAGCACUACCACUAGCAGCUGUGUUAAGAUAUUUAU | 0.518
CUUUAUGGGCCUCGCAGAGUUGAAAUACUGGAAGAGGAAAGUGAACAGUAAUCUUCAUUCUAGUAUUUAUGCUUAGGUGUGAAAUAAAUGUUACUUGUUGAUAAUUUCUAUAAUCCAGAG | 0.339
AAAUUUAUUUCAUGCCCUGGACUCCAUAUCGUACUGAUACUUUAAUAGAAUAUGCUUCUUUAGAAGAUUUCCAAAACAGUCGCCAAACAACAACAUACAAACUUCCAAAUCGCGUAGAUG | 1.33
UUCCGCCCUCUCAUGACAGGGAGUGGGGGGAGCCCAGAACGACCCUCAACUGUUCCAAUCUAGUUGUUUUGUUUUGUUUGUUUUUUUUAAAUGACUGUAUUUAUUAUGACGAAGGUGAUU | 0.707
AUCAUCUGACUGGAUGAAGACUGUCCCGAGUUACAGCCAAACCAAUAGCUCCAUGGACUUCAGAAAUUACAUGAUGAGAGAUGAGAAUCUGGAACCACUGCCCCCAAACUGGGAGAUGGC | 0.276
CAUAAAAUAUUGGAUGCAGUGUAUAAAUUAUCCAAGGCAGUGACUUCAGCUUUAUAUAUAUUGACAGUUUUAAAGUCAUCUGCAUUUAUUUAAACUCCUAUAUUGGAUCGUUUGAUCUGU | 0.382

Sample 7 — target: CCNE2, cyclin fold, Cln2 fusion (human); technique: yeast growth competition, sequencing; medium: yeast; setting: strong parent motif; relative to: not given; direction: higher = stronger binding
Starting sequence: INSM1 docking peptide (human); PKAIRKLHFEDEV
Substitution | normalised enrichment score
PKAIRKLHFEDVV [E12V] | 1.72
PKAIRKLHFEDYV [E12Y] | 2.19
PKAIRKCHFEDEV [L7C] | 0.389
PKAIRTLHFEDEV [K6T] | 0.638
PTAIRKLHFEDEV [K2T] | 1.88
PKAIRKKHFEDEV [L7K] | 0.213
PKMIRKLHFEDEV [A3M] | 0.404
PKAIRKLHPEDEV [F9P] | 0.0559
PKAIRKNHFEDEV [L7N] | -0.218
PPAIRKLHFEDEV [K2P] | 1.07

Sample 8 — technique: protein binding microarray; form: double-stranded DNA, one strand shown; medium: in vitro; concentration: not given; relative to: not given; direction: higher = stronger binding
Target: Histone acetyltransferase KAT6A, winged helix 2, GST fusion (KAT6A, Homo sapiens, UniProt Q92794, residues 85-181)
Setting: 8-mer, flanks averaged, mean of 2 arrays, mostly near background
Target sequence (chain): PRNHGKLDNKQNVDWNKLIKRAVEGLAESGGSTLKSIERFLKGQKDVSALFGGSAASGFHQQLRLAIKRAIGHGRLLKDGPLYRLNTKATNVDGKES
Oligonucleotide | E-score
GCTAGATA | -0.0308
AGCGAGTC | -0.0723
ACATCCGA | 0.0231
ACCATACT | -0.0468
AAGTATAG | -0.28
TGATTTAA | -0.000825
ACGCCCGA | 0.182
ACTGGAAA | -0.118
ACTTCATA | -0.155
TAAGGTAA | 0.0257
ACTGCGAA | 0.0699
GTAACTAA | 0.0511
CGCATTCC | -0.0241
GCGACGTA | -0.0059
CCTGCCGA | 0.11
ACTCCTAG | -0.15
GCCTGCGA | 0.0808
AATAACGG | 0.109
AGGAAATG | 0.0999

A few entries again (sample 1):
Oligonucleotide | 7-mer Z-score
CGUUCGG | -0.344
AACACAU | 0.466
CGCGAUU | -0.2
UCGAGUU | -0.315
CUUAGGC | -0.306
UCCGAUU | -0.311
GGCGUCU | -0.157
GGCUAUC | 0.000733
UUUUGCC | -0.378
CCCCCUU | -0.525
AGACGCA | -0.159
UCCCUUU | -0.253
GCUCGGU | -0.219
